Measured values gathered from unrelated publications.
Protocols differ between the studies behind these lines.
Cell line: HEK293

Compound | read-out | technique | concentration | time | notes | endpoint | result
C[C@@](O)(C(F)F)[C@H](NC(=O)c1ccc(C#CC#CC2CC2)cc1)C(=O)NO |  | CellTiter-Glo |  | 24 h |  | LD50 | > 128 µg/mL
CC(C)OC(=O)C(n1cccn1)n1cccn1.F[P-](F)(F)(F)(F)F.[Cu+].c1ccc(P(c2ccccc2)c2ccccc2)cc1 | cell growth or viability | MTT |  |  |  | IC50 | 10.6 µM
CN1C(=O)[C@@H]2NC(=O)[C@@H]3NC(=O)[C@@H](c4ccc(O)cc4)NC(=O)[C@H](NC(=O)C(N)c4ccc(O)cc4)Cc4c[nH]c5cc(ccc45)-c4cc3cc(c4O)Oc3ccc(cc3)C[C@H]1C(=O)N[C@@H](C(=O)NCCCN)c1ccc(O)c(c1)Oc1ccc2cc1 (some centres unmarked) | cell viability | CellTiter-Glo |  | 48 h |  | concentration without cytotoxicity | > 256 µg/mL
CC(C)C[C@H](NC(=O)[C@H](C)NC(=O)CNC(=O)[C@@H](NC(=O)[C@@H](NC(=O)[C@H](CCCCN)NC(=O)[C@H](CCCCN)NC(=O)[C@H](CC(C)C)NC(=O)[C@H](CC(C)C)NC(=O)[C@H](CCCCN)NC(=O)[C@H](CC(C)C)NC(=O)[C@H](CC(C)C)NC(=O)[C@@H](N)CCCCN)C(C)C)C(C)C)C(=O)NCC(N)=O | cytotoxicity |  |  |  |  | CC50 | > 21 µM
CC[C@H](C)[C@H](NC(=O)[C@H](CCCNC(=N)N)NC(=O)[C@H](Cc1ccccc1)NC(=O)[C@H](CC(C)C)NC(=O)[C@H](CCCCN)NC(=O)[C@H](CO)NC(=O)[C@@H](NC(=O)[C@H](CC(C)C)NC(=O)[C@H](CCCCN)NC(=O)[C@H](C)NC(=O)[C@H](CC(N)=O)NC(=O)[C@H](CCCNC(=N)N)NC(=O)[C@H](Cc1ccc(O)cc1)NC(=O)[C@H](C)NC(=O)[C@@H](NC(=O)[C@H](CCCCN)NC(=O)[C@H](CC(N)=O)NC(=O)[C@H](CCCCN)NC(=O)[C@H](CC(C)C)NC(=O)[C@H](CO)NC(=O)[C@H](CC(C)C)NC(=O)[C@H](C)NC(=O)[C@H](C)NC(=O)[C@H](CO)NC(=O)[C@@H](NC(=O)[C@@H](NC(=O)[C@H](Cc1c[nH]c2ccccc12)NC(=O)[C@@H](NC(=O)[C@H](CO)NC(=O)[C@@H](NC(=O)[C@@H](N)CC(C)C)C(C)C)C(C)C)[C@@H](C)CC)[C@@H](C)CC)C(C)C)C(C)C)C(=O)N[C@@H](C)C(=O)N[C@@H](CC(C)C)C(=O)O |  | MTT | 2 to 16 µg/mL | 24 h |  | cell death | 2.5 to 7%
CC1(C2CC2)OOC2(CCN(C(=O)c3ccccc3)CC2)OO1 | cell growth or viability | MTT |  | 72 h |  | CC50 | > 100 µg/mL
NCCCC[C@@H]1NC(=O)[C@H](CO)NC(=O)[C@H](CCC(N)=O)NC(=O)[C@H](Cc2ccccc2)NC(=O)Cc2ccc(cc2)CCNC1=O |  | LDH release | up to 256 µM | 72 h |  | cytotoxicity | not toxic
Cc1cc(C)n(C(C(=O)OC(C)C)n2nc(C)cc2C)n1.F[P-](F)(F)(F)(F)F.[Cu+].c1ccc(P(c2ccccc2)c2ccccc2)cc1 | cell growth or viability | MTT |  |  |  | IC50 | 7.2 µM
COC1CC(=O)N(C)C=CCCCC(=O)N(C)C(C(C)C)C(=O)N(C)C(CC(C)C)C(=O)OC(C(C)C)CC(C)C1 (centres unmarked) |  | MTT | up to 100 µM | 24 h |  | cytotoxicity | not toxic
CN1CCC(NCCC2(Cc3ccc(Cl)cc3)CCCCC2)CC1 | cell viability | CellTiter-Glo |  | 48 h | tested up to 60 µM | LD50 | 20 µM
CCC1(c2ccccc2)OOC2(CCN(C(=O)c3ccccc3)CC2)OO1 | cell growth or viability | MTT |  | 72 h |  | CC50 | > 100 µg/mL
CN(C)CCCNC(=O)[C@@H]1NC(=O)[C@@H]2Cc3ccc(cc3)Oc3cc4cc(c3O)-c3ccc5c(c[nH]c5c3)C[C@@H](NC(=O)C(NC(=O)CCCCCN)c3ccc(O)cc3)C(=O)N[C@H](c3ccc(O)cc3)C(=O)N[C@H]4C(=O)N[C@@H](C(=O)N2C)c2ccc(cc2)Oc2cc1ccc2O (some centres unmarked) | cell viability | CellTiter-Glo |  | 48 h |  | concentration without cytotoxicity | > 256 µg/mL
COc1ccc2cc1Oc1cc3c(cc1OC)CCN(C)C3Cc1ccc(cc1)Oc1c(O)c(OC)cc3c1C(C2)N(C)CC3 (centres unmarked) | cell growth or viability | MTT |  | 24 h |  | CC50 | 37.3 µM
CCCCCCNC(C(=O)N[C@@H]1Cc2c[nH]c3cc(ccc23)-c2cc3cc(c2O)Oc2ccc(cc2)C[C@H]2C(=O)N[C@@H](C(=O)O)c4ccc(O)c(c4)Oc4ccc(cc4)[C@@H](NC(=O)[C@@H]3NC(=O)[C@@H](c3ccc(O)cc3)NC1=O)C(=O)N2C)c1ccc(O)cc1 (some centres unmarked) | cell viability | CellTiter-Glo |  | 48 h |  | concentration without cytotoxicity | > 256 µg/mL
CC(=O)[C@@H]1CC[C@]2(CO)CC[C@]3(C)[C@H](CC[C@@H]4[C@@]5(C)CCCNC(C)(C)[C@@H]5CC[C@]43C)[C@@H]12 | cell growth or viability | resazurin |  | 20 h |  | CC50 | > 20 µM
CN1C(=O)[C@@H]2NC(=O)[C@@H]3NC(=O)[C@@H](c4ccc(O)cc4)NC(=O)[C@H](NC(=O)C(N)c4ccc(O)cc4)Cc4c[nH]c5cc(ccc45)-c4cc3cc(c4O)Oc3ccc(cc3)C[C@H]1C(=O)N[C@@H](C(=O)O)c1ccc(O)c(c1)Oc1ccc2cc1 (some centres unmarked) | cell viability | CellTiter-Glo |  | 48 h |  | concentration without cytotoxicity | > 256 µg/mL
C=C(C)[C@@H]1CC[C@]2(CO)CC[C@]3(C)[C@H](CC[C@@H]4[C@@]5(C)CCCNC(C)(C)[C@@H]5CC[C@]43C)[C@@H]12 | cell growth or viability | resazurin |  | 20 h |  | CC50 | > 20 µM

A few entries again:
Compound | read-out | technique | concentration | time | notes | endpoint | result
CN1C(=O)[C@@H]2NC(=O)[C@@H]3NC(=O)[C@@H](c4ccc(O)cc4)NC(=O)[C@H](NC(=O)C(N)c4ccc(O)cc4)Cc4c[nH]c5cc(ccc45)-c4cc3cc(c4O)Oc3ccc(cc3)C[C@H]1C(=O)N[C@@H](C(=O)NCCCN)c1ccc(O)c(c1)Oc1ccc2cc1 (some centres unmarked) | cell viability | CellTiter-Glo |  | 48 h |  | concentration without cytotoxicity | > 256 µg/mL
COc1ccc2cc1Oc1cc3c(cc1OC)CCN(C)C3Cc1ccc(cc1)Oc1c(O)c(OC)cc3c1C(C2)N(C)CC3 (centres unmarked) | cell growth or viability | MTT |  | 24 h |  | CC50 | 37.3 µM
